Measured values from different studies.
Protocols differ between the studies behind these lines. ± gives the spread as reported.
Slc6a3: Sodium-dependent dopamine transporter (Slc6a3, Rattus norvegicus, UniProt P23977)
UniProt P23977, sequence (whole entry, looked up): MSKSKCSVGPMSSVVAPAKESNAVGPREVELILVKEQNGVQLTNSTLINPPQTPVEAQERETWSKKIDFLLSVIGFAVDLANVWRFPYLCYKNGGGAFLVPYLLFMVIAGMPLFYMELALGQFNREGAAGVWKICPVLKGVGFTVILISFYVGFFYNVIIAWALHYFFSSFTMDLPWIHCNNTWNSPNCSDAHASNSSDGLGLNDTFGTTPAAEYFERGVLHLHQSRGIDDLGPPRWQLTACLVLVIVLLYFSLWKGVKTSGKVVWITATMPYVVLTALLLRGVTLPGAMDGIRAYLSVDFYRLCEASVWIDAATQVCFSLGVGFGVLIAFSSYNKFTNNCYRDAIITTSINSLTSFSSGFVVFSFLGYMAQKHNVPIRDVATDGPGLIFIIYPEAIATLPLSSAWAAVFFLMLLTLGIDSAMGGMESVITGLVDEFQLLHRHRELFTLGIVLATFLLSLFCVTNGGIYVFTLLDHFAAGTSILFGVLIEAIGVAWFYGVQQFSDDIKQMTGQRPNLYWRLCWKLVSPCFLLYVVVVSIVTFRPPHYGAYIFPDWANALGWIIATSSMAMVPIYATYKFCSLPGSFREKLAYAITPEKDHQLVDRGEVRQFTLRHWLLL
OPRD1 with Gi1: Delta-type opioid receptor, with Gi1 (OPRD1, Homo sapiens, UniProt P41143)
UniProt P41143, sequence (whole entry, looked up): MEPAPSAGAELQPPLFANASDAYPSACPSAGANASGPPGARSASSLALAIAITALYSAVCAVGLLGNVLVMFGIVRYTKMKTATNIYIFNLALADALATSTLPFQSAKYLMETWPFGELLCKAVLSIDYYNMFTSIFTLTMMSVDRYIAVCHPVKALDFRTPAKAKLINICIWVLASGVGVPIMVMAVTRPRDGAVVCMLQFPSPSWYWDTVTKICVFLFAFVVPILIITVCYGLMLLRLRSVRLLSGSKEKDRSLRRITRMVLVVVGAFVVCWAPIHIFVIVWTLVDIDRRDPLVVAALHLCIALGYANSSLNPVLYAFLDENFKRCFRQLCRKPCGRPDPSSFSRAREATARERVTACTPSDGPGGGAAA
CNR1: Cannabinoid receptor 1 (CNR1, Homo sapiens, UniProt P21554)
UniProt P21554, sequence (whole entry, looked up): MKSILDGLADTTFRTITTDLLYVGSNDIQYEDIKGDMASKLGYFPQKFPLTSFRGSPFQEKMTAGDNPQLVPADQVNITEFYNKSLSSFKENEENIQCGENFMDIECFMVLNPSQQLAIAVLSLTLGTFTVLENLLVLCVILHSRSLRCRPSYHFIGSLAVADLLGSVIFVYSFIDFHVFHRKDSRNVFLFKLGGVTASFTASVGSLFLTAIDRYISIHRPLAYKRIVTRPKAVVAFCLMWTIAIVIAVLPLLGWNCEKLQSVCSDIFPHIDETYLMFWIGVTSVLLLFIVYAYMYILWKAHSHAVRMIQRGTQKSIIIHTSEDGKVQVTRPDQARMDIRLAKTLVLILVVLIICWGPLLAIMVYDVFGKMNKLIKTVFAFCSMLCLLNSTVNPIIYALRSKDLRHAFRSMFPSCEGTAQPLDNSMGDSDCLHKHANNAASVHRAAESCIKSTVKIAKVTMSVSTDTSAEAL
dncV: dncV (Vibrio cholerae, UniProt Q9KVG7)
UniProt Q9KVG7, sequence (whole entry, looked up): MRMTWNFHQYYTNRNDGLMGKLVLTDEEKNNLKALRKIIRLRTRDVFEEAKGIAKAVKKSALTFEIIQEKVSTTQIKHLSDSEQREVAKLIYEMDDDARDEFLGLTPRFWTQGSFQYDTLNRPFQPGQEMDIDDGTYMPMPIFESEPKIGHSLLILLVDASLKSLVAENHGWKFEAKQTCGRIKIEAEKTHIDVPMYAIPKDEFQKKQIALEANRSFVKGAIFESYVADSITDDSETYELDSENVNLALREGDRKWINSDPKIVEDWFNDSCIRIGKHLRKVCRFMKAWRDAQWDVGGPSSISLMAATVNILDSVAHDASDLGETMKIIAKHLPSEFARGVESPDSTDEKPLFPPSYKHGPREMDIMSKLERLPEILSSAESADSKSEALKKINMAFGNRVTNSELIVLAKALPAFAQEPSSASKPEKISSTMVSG
VHL with elongin B/C: von Hippel-Lindau disease tumor suppressor, with elongin B/C (VHL, Homo sapiens, UniProt P40337)
UniProt P40337, sequence (whole entry, looked up): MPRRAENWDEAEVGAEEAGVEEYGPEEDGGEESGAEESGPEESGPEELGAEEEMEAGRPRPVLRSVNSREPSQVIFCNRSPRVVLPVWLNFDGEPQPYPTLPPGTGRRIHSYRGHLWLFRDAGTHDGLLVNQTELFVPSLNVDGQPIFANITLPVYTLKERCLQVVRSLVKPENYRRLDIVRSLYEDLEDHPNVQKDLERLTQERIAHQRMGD
HSP90AA1: Heat shock protein HSP 90-alpha (HSP90AA1, Homo sapiens, UniProt P07900)
UniProt P15682, sequence (whole entry, looked up): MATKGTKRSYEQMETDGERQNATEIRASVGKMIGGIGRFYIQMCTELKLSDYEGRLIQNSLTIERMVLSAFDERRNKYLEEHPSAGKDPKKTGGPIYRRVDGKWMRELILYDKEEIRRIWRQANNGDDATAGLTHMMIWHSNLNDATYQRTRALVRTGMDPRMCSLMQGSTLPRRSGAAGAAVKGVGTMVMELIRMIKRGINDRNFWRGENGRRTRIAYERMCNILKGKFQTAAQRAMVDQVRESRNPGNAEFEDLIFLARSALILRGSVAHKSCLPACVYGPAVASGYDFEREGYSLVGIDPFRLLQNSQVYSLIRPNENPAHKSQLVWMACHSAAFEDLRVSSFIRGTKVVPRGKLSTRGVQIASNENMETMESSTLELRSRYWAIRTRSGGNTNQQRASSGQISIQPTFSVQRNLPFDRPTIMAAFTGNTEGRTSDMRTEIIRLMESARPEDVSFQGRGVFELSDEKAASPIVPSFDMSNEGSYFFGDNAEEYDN
UniProt P51449, sequence (whole entry, looked up): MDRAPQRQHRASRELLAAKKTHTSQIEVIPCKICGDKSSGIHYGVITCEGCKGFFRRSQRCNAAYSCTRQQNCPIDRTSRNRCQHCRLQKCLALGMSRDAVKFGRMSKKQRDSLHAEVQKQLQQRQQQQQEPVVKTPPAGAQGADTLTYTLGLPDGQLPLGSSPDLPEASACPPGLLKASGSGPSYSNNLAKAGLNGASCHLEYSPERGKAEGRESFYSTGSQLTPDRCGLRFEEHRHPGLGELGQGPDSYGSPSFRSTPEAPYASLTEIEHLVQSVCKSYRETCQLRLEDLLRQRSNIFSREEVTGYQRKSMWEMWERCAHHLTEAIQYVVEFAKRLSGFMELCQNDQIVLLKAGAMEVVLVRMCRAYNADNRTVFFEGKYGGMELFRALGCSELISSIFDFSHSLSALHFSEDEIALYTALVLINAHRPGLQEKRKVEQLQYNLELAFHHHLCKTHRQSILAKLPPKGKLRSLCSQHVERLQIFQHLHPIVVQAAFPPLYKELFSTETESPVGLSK
UniProt P54290, sequence (whole entry, looked up): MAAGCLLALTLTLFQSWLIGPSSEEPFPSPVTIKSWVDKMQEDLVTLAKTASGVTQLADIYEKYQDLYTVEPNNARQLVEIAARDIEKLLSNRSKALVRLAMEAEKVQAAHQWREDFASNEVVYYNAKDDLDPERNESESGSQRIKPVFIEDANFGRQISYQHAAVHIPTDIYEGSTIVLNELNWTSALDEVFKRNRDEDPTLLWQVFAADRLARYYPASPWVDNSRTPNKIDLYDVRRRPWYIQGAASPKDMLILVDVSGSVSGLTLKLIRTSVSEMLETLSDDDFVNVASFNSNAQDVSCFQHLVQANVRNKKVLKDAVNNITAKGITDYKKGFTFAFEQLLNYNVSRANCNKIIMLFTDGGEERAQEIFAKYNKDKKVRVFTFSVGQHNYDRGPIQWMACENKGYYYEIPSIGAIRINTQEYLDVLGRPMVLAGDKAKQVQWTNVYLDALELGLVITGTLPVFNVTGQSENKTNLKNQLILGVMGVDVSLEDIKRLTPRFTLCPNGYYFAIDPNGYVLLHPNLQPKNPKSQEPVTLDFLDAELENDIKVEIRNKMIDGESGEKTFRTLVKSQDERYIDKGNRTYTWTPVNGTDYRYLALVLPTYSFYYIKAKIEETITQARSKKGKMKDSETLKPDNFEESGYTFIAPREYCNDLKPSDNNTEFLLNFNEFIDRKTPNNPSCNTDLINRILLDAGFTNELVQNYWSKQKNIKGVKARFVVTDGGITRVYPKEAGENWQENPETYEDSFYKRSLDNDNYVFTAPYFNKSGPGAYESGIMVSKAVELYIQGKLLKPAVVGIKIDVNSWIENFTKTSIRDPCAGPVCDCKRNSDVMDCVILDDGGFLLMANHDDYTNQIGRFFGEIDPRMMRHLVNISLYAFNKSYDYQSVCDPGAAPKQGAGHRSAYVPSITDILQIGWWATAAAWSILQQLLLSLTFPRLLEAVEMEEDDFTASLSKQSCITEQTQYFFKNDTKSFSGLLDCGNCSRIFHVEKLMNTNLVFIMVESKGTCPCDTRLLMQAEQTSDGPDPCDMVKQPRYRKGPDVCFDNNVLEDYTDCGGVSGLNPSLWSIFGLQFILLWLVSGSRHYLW
UniProt Q05209, sequence (whole entry, looked up): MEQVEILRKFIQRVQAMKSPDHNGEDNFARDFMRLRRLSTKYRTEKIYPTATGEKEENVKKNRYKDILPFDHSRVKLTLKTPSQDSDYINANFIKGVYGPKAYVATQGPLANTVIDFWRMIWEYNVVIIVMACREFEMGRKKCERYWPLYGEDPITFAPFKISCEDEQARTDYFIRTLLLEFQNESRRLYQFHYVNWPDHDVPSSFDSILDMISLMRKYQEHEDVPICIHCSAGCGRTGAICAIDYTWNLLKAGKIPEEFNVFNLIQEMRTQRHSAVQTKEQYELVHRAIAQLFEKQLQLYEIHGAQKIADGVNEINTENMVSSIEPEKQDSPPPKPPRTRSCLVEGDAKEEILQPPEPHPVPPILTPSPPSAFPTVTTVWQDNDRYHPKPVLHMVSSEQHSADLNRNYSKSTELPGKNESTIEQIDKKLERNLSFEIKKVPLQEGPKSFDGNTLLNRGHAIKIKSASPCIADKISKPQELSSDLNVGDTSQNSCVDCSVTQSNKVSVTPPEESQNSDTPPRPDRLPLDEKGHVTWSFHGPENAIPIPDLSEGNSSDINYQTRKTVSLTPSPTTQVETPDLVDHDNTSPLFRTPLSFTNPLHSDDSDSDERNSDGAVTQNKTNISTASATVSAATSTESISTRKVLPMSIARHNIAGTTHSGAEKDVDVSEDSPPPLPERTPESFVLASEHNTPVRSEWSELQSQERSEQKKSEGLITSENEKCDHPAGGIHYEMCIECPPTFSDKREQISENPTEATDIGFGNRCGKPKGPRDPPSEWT

For `CNC(C)C(=O)c1ccc(Cl)c(Cl)c1` (stereo not shown), the potency ratio was 3.6 fold (Slc6a3; dopamine release, releaser; rat brain synaptosomes; added: [3H]dopamine; baseline: compound over methamphetamine).
`COc1ccc2cc(-c3c(C(=O)O)cccc3C(=O)O)ccc2c1` gave a particle size of 15 to 17 nm (Nucleoprotein (Influenza A virus, UniProt P15682); NP–RNA complex).
For `C#C[C@@]12CC[C@H]([C@H](C)CCCC(C)C)[C@@]1(C)CC[C@H]1C2=CCC2C(C)(C)[C@@H](O)CC[C@@]21C` (stereo partly shown), “maximal high-spin heme content” read 35 to 40% (Lanosterol 14-alpha-demethylase (Trypanosoma brucei brucei, UniProt Q385E8); spectral binding; Trypanosoma brucei; type I spin shift).
For `N=C(N)NCCCCCCCN1CC[C@]23c4c5ccc(O)c4O[C@H]2c2nc4ccccc4cc2C[C@@]3(O)[C@H]1C5`, the Emax was 78 ± 2% (OPRD1 with Gi1; human cells).
With `NC1=NN=Cc2ccccc2[O][V](=[O])[O]1.c1cnc2c(c1)ccc1cccnc12` the selectivity ratio was 42.8 (PTPN12 (Homo sapiens, UniProt Q05209); baseline: IC50 PTP–PEST over IC50 YopH).
`CCCCCn1c2ccccc2c2cc(C(=O)c3cccc4ccccc34)ccc21` gave an Emax of 48.5% (CNR1; cAMP inhibition, agonist, BRET; HEK293 expressing CNR1; added: forskolin; baseline: forskolin alone).
`CNC(C)C(=O)c1cccc(OC(F)(F)F)c1` (stereo not shown) has a potency ratio of 15 fold (Slc6a3; dopamine release, releaser; rat brain synaptosomes; added: [3H]dopamine; baseline: compound over methamphetamine).
`Nc1nc2c([C@@H]3O[C@H](COP(=O)(O)OP(=O)(O)OP(=O)(O)O)[C@@H](O)[C@H]3O)snc2c(=O)[nH]1`: “cyclization rate constant k2” 0.0034 ± 0.0002 s⁻¹ (dncV; substrate, HPLC; 500 µM, 37 °C).
The inhibition of `CCC(=O)N1CCc2cc(-c3ccc(C(=O)NC(C)Cc4ccco4)cc3)ccc21` (stereo not shown) is reported as 31.1% (VHL with elongin B/C; binding, TR-FRET; 10 µM, 90 min, added: BODIPY FL VH032).
`CCCCCn1cc(C(=O)Cc2ccccc2OC)c2ccccc21` has an association constant of 1.53e+11 M⁻¹ (CNR1; binding, surface plasmon resonance; 50 µM).
With `CCCCCn1cc(C(=O)c2ccc3c(c2)CC(C)(C)C3)c2ccccc21` the Emax was 53.7% (CNR1; β-arrestin recruitment, agonist, BRET; HEK-293T).
For `CCC(=O)N1CCc2cc(-c3ccc(C(=O)NCc4ccco4)cc3)ccc21`, the inhibition was 45.7% (VHL with elongin B/C; binding, TR-FRET; 10 µM, 90 min, added: BODIPY FL VH032).
Under “intermediate degradation rate k3”, `Nc1nc2c([C@@H]3O[C@@H]4COP(=O)(O)O[C@H]5[C@@H](O)[C@H](c6scc7c(=O)[nH]c(N)nc67)O[C@@H]5COP(=O)(O)O[C@H]4[C@H]3O)scc2c(=O)[nH]1` is recorded as 2.91e-05 ± 1e-07 s⁻¹ (dncV; substrate, HPLC; 500 µM, 37 °C).
With `CCCCCn1cc(C(=O)c2cccc3c2CC(C)(C)C3)c2ccccc21` the Emax difference was about 70% (CNR1; β-arrestin 2 recruitment, agonist, BRET; baseline: CB1 minus CB2).
With `O=C1CC(=O)N(c2ccccc2)c2cc(Cl)ccc2N1` the Emax was 245 ± 29% (Gabrg2/Gabra3, with β3 subunit (Rattus norvegicus, UniProt P18508+P20236); positive allosteric modulator, whole-cell patch clamp; HEK293; α3β3γ2 subunits, added: GABA at EC10).
For `COc1ccccc1N1C(=O)/C(=C/c2cccn2-c2ccc(O)cc2)C(=O)NC1=S`, activity class read “active” (RORC (Homo sapiens, UniProt P51449); cell-based; concentration not given).
For `CCC(C)n1c(C(=O)Nc2cnc(C(=O)NC)n(CC(C)C)c2=O)ncc(NC(=O)c2ncc(NC(=O)c3ccccc3)c(=O)n2Cc2ccc(OC)cc2)c1=O` (stereo not shown), the inhibition was 39.9% (HSP90AA1; 50 µM).
`CC(C)C[C@@H](CN)CC(=O)O` gave an inhibition of 19% (Voltage-dependent calcium channel subunit alpha-2/delta-1 (Rattus norvegicus, UniProt P54290); [3H]gabapentin binding; rat cerebral cortex membranes; 1 µM, added: [3H]gabapentin 20 nM).
Under “fraction of target bound”, `CC(=O)N[C@@H](CCC(=O)O)C(=O)N[C@@H](CCC(N)=O)C(=O)N[C@H](C(=O)N[C@@H](CCC(=O)O)C(=O)N[C@@H](CC(C)C)C(=O)N[C@@H](CCC(=O)O)C(=O)N[C@@H](Cc1ccccc1)C(=O)N[C@@H](CC(=O)O)C(=O)O)C(C)C` is recorded as about 93% (Beta sliding clamp (Escherichia coli, UniProt P0A988); 50 µM, target 5 µM).
For `CCCCCc1cc(O)c2c(c1)OC(C)(C)C1CCC(C)=CC21` (single isomer, unassigned; (-)), inhibition read “no inhibition” (UGT1A1 (Homo sapiens, UniProt P22309); estradiol glucuronidation; recombinant microsomes; 10 or 100 µM, added: β-estradiol).
Under Ki, `CCOC(=O)C1C(OC(c2ccc(Cl)cc2)c2ccc(Cl)cc2)CC2CCC1N2C` (single isomer, unassigned) is recorded as “inactive” (Adra1b (Rattus norvegicus, UniProt P15823); binding, radioligand displacement; rat liver; inactive if below 75% at 10000 nM, added: [3H]prazosin).
`CCCCCc1cc(O)c2c(c1)OC(C)(C)C1=C2[C@@H](O)[C@@](C)(O)CC1` gave a Ki' of 0.305 mM (Si (Rattus norvegicus, UniProt P23739); inhibitor).
With `CCC(C)n1c(C(=O)Nc2cnc(C(=O)NC)n(CC(C)C)c2=O)ncc(NC(=O)c2ncc(NC(=O)c3ccccc3)c(=O)n2Cc2ccc(OCc3ccccc3)cc2)c1=O` (stereo not shown) the inhibition was 41.8% (HSP90AA1; 50 µM).
`Nc1nc2c([C@@H]3O[C@@H]4COP(=O)(O)O[C@H]5[C@@H](O)[C@H](c6snc7c(=O)[nH]c(N)nc67)O[C@@H]5COP(=O)(O)O[C@H]4[C@H]3O)snc2c(=O)[nH]1`: “intermediate degradation rate k3” 0.00013 ± 1e-05 s⁻¹ (dncV; substrate, HPLC; 500 µM, 37 °C).
`CCCCCCCCN1CCC23c4c5ccc(O)c4OC2c2nc4ccccc4cc2CC3(O)C1C5` (stereo not shown) has an Emax of 55 ± 2% (OPRD1 with Gi1; human cells).
The Emax of `CCCCCn1cc(C(=O)c2cccc3ccccc23)c2ccccc21` is reported as 58.3 ± 5.9% (CNR2 (Homo sapiens, UniProt P34972, I110L); Gαi1 engagement, agonist, BRET; baseline: reference agonist at wild-type CB2).
With `NCCCCCCCCN1CCC23c4c5ccc(O)c4OC2c2nc4ccccc4cc2CC3(O)C1C5` (stereo not shown) the Emax was 46 ± 2% (Delta-type opioid receptor, with β-arrestin2 (OPRD1, Homo sapiens, UniProt P41143); human cells).
`COc1ccc2cc(C(CC(=O)O)CC(=O)O)ccc2c1` gave an inhibition of 16% (Nucleoprotein, monomeric (Influenza A virus, UniProt P15682); 1 µM).
With `N=C(N)NCCCN1CC[C@]23c4c5ccc(O)c4O[C@H]2c2[nH]c4ccccc4c2C[C@@]3(O)[C@H]1C5` the Emax was 84 ± 2% (OPRD1 with Gi1; human cells).
With `CCC(C)n1c(C(=O)Nc2cnc(C(=O)NC)n(CC(C)C)c2=O)ncc(NC(=O)c2ncc(NC(=O)c3ccccc3)c(=O)n2C(C)C)c1=O` (stereo not shown) the inhibition was 3.27% (HSP90AA1; 50 µM).
The koff of `OP(O)(=S)O[C@H]1[C@H](OP(O)(O)=S)[C@@H](OP(O)(O)=S)[C@H](OP(O)(O)=S)[C@@H](OP(O)(O)=S)[C@H]1OP(O)(O)=S` is reported as 0.00691 s⁻¹ (Toxin B (tcdB, Clostridioides difficile, UniProt P18177); binding, ITC).
